Assay results pooled from the literature.
Each numbered part is a random draw from the data of one study; scales do not carry over between parts.

Series 1
Target: RNA binding protein fox-1 homolog 2, RRM domain, GST-SBP tag (RBFOX2, Homo sapiens, UniProt O43251-10, residues 100-194)
Method: RNA Bind-n-Seq
Form: RNA
Matrix: in vitro
Tested at: 365 nM
Notes: natural RNA segment, single round, ends assumed
Reference: no-protein control
Reading: higher = stronger binding
Constant ends, left off below: GGGAGUUCUACAGUCCGACGAUC … UGGAAUUCUCGGGUGCCAA
Construct (chain): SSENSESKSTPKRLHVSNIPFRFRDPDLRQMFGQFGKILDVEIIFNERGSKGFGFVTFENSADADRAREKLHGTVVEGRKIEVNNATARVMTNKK
Oligonucleotide	RBNS enrichment (R)
UGUAGUUUCCAUGCAUAUUUCACCAUGGUUCGCACUCUGAUCCUCAUCUGGUUUAGAAAGCAAUUCAGUUUCUUUCAAACCACCAUAACCUAAGUGCUGCCCCAUCCUUC	1.22
CACAUGAAACUCUGGGAUCCAGUGAAGGGUCCUGCUUGGUCUUGUUUUCAGAGUCUGUAACAUUGAAGCCCUCCAUCAGAUCUACCUAUUACUGCUGCUUUAGAGCAUGA	0.722
ACUCAACAAUAAGGUUUUAGUUACUGUAUACACUUAACCAAGUUGUGUGACCUAUGACCUACUUUGCAUGCUCUGAUACUGUGUGCCGCCCCCACCCCCACCCCCCAGGU	1.68
CAGGCUGGAGUCAGAAAUGUUUCCCAAAGAGUGAGUCUUUUGCUUUUGGCAAAACGCUACUUAAUCCAAUGGGUUCUGUACAGUAGAUUUUGCAGAUGUAAUAAACUUUA	0.505
AAUCAAUUUAAUGGUCCUUUAAAAUGUCUGUGUAUUAAAAAUUUAAGAAUACCACACUUUAAUAUUAAAUAUUCAUAAGGUCUAGUAUCUUGAUAAUAAUGUAGAUGUUU	0.442
CGUUUAUAUUGUAGCAGUUACAGCUCUGUAGUUUAUGAUGCAAAUCUGCCAAGAGAGAUGUAUGUGUCACUGCAUGGCUUCUGAAAGCAGGAUGAAUUUUCUGCAGCUGU	0.431
AGACUAGGUAUCAGAUUCCUUUUGCAGUGGGAGGUGUAUAUAUCGUAUUUUGGUAUAGAGUAGGACCCAAGCUUCAUGCAUCUGUAUUUGGUAUAUGUCAAUGACGUGGA	0.713
CUCCCAGUAGUAGACCUGUGGUACCUAACGGCGUAUCAGGGCAUGCUGGUAUCACAAGACCCUGAUACACAUUUCAGUGUUCCUAGCCCUUCUUGUCCUCCCUACCCUAA	0.52
AGAAGAAAUGAACUACUGCAACUUAUGAGGAAUCAUGAGAUCCAGCUCACUUUUGCUCAAUACCUAUCAAAAGCUUGUCCCAGAGUGAUUAUGGAGGAUUGCAUGCAGGA	6.22
AUUCCAAUAAACUAUGAGGACUGCCUUAUGGAUGAUUUAAGUGUCUCACUAAAGCAUGAAAUGUGAAUUUUUAUUGUUGUACAUACGAUUUAAGGUAUUUAAAGUAUUUU	8.46
AUGUCCGUGACAUUAAAGGCUCCACAUGAUUGACCACAGCAUGGGAGAGCGGUGUUCUUCACUCGACUCCACCCUGCUGGACACAGGAAAAUUUCAAUUGCUAAAAAAAA	0.271
CGCCAACUCCCACGCAUUCGUGGGCAGAGCCCCGAGGCUGGUGGGCAGGACAAGGGGACUGGAAGAGGUUUCCUCAGAAGGCUCCCGGAACUUGGAGUCAGGCAUCGUGA	0.389

Series 2
Target: Fragile X messenger ribonucleoprotein 1, C-terminal low-complexity region (Fmr1, Mus musculus, UniProt P35922)
Method: RNA Bind-n-Seq
Form: RNA
Matrix: in vitro
Tested at: 200 nM
Notes: whole 134-nt RNA, ends assumed
With: 150 mM KCl
Reference: input library
Reading: higher = stronger binding
Constant ends, left off below: GGGAGUUCUACAGUCCGACGAUC … UGGAAUUCUCGGGUGUCAAGG
Oligonucleotide	log2 enrichment
CUCAAGUCCUGUGCUACACAUCGUAUGUACCGAAUCGGGAGGGGAGGGGAGGGGAAAGUAUUAUGUUACGCCGUUCGGAUCUGCACUUCC	1.18
UGGCCUUGGUGGCAUGCGGGGAGGAAGAGGUGGCCUCAUGGAUCGUGGUGGUCCCGGUGGAAUGUUCAGAGGUGGCCGUGGUGGAGACAG	0.466
CUGUGCUACACAUCGUAUGUACCGAAUCGGGUUUUUUUGGGGUUUUUUUGGUUUUUUUGGGAAAGUAUUAUGUUACGCCGUUCGGAUCUG	-0.775
CACAGACAACACGCACCCACACAGACACAGCGGGAAGGGGUUGGGAUGGGGACAGGGUGCACAGCAGGGCGGGGUAGGACCCCAGCCCCU	1.28
UUCCUCAAGUCCUGUGCUACACAUCGUAUGUACCGAAUCGGCGGCGGCGGAAAGUAUUAUGUUACGCCGUUCGGAUCUGCACUUCCAGCA	-0.0726
UAACUUUAGAGGAGGAUCUGAUGGAUAUGGCAGUGGACGUGGAUUUGGGGAUGGCUAUAAUGGGUAUGGUGGAGGACCUGGAGGUGGCAA	0.27
UGGGAGGUGGAUUUUGUUUAUUUUUUUAGCUCAUUUCCAGGGGUGGGAAUUUUUUUUUAAUAUGUGUCAUGAAUAAAGUUGUUUUAGAAA	0.304
UUCCCUGAAGAUGAGAUCCCAGAGAAGGCCUGCAGGCGCCUGCUUGAAGGGAGGCGGCAGAAGAAGACGAAGAAGCAGAAGCGUCUGCUC	0.00274
AUUAAUUUGUACACAGACAGGGAAACUGGCAAGCUGAAGGGAGAGGCAACGGUCUCUUUUGAUGACCCACCUUCAGCUAAAGCAGCUAUU	-0.835
UCAAGUCCUGUGCUACACAUCGUAUGUACCGAAUCGGAAAGGAAAGGUUUUUGGAAAGUAUUAUGUUACGCCGUUCGGAUCUGCACUUCC	-0.884
UGUGCUACACAUCGUAUGUACCGAAUCGGGGAAAAAGGGGUUUUUUUGGGGUUUUUUUGGGGAAAGUAUUAUGUUACGCCGUUCGGAUCU	0.319
GUCCUGUGCUACACAUCGUAUGUACCGAAUCGGAAAAAAGGGAAAAAAGGAAAAAAGGAAAGUAUUAUGUUACGCCGUUCGGAUCUGCAC	-0.659
ACCAUGCAGGUGGGCAUCUUUGGGAAGUGGGGCAAGGGGGGGUUAGGGAGGGGGGUAACACUUUGGGAACAGGUGGUCCCAGGUCGUUUC	0.761
GCAGGAAAAAAAAACAAAUGGAAAUGCUUCGGAUAGUGGCAGGGGUGGGGGUUGCUAAGGAAAGGGUGGGAUGGGAGUGGGUAAAGAGUU	0.666

Series 3
Target: Phosphate system positive regulatory protein PHO4, full length, GST-tagged (PHO4, Saccharomyces cerevisiae, UniProt P07270, residues 1-312)
Method: competition protein-binding microarray
Form: double-stranded DNA, one strand shown
Matrix: in vitro
Tested at: 2 µM
Notes: whole 60-bp probe, lowest competitor level
With: Cbf1 competitor, 0.05 µM
Reading: higher = stronger binding
Constant ends, left off below: … GTCTTGATTCGCTTGACGCTGCTG
Target sequence (chain): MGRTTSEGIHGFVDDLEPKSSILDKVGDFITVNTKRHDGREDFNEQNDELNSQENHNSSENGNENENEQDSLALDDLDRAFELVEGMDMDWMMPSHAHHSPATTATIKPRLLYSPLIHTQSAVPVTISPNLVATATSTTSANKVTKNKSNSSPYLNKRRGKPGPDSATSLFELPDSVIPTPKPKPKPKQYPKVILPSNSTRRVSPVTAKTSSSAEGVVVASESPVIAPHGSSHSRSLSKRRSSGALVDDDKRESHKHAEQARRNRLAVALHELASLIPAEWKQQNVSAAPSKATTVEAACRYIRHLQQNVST
Oligonucleotide	fluorescence intensity [a.u.]
GGGGAATTTCGCCGTCACGTTGTTTTGGTAAGTTCC	11400
AGATCAATTATCCGAAGCGGGTCCCAACCCGGAAAT	2640
CATACCCAACCTTTTCACGTGTCCTAAGATATTTGT	14500
AAATTACTAAGTTGATCTGTGGGTGACGCCGTATGA	3790
TAGGTAGCAAATATTGGCGTGATTGCGGAGCCTTCC	3670
ACTCAGTTACTCAGTCAGCTGATGCGATGCGATGTT	4740
AGCGATTGTAGCCAAATCGTGGGTACTGACTCTTGT	6500
CAATGAATATACTGCAACGTGCCGATTGAATCCTAT	14600
CTTCTGTAAATTTGACAGGTGGGTGGACGCGCCCCG	5790
AGTAGCCAACTTCTTAACGTGTTGGGCAAGCAAGAT	7170
CGGGGTTAAGTTTGCATAGTGGGTGGCTTGCAGCAG	5100
GTCCTGGAAGCCTGACGCGTGCGATCTTCTCCTCCC	9490
CTTTCCCGATCTTGCCAAGTGGGTGTAGCACATTTG	4080
GTCTTGTCTCATTTTCACGTGGATTTCCCCACTTCA	12300
CGTCTGCTAATGGCGGACGTGGTCGATGATGAAGAG	6370
CGTCCTAGTGATTGCGGAGTGGGTGCCATGAGGAAG	7620
ACTTAGCGCAAACGTCACCTGGGTGGCGTTTTCCGC	4090
AATCGTTGGCACCATCACGGGATTTTGACGAGGGGA	4860
GAGTTTGTTTTCCTTCACATGATGAAGAAGGTTTGA	4880
AAAGCGGTAATTTGTCACAGTACTTCACATATCTAT	3670
CGTCAGTTGGAGCACCATGTGTCTTCTTGAAAGGAT	9360
TGCGCAACAACTTGGCGTGTGGGTGTATGTCTAGAA	6620
GGATCCCATCCAACACACGTGTTGAAATGACATCAG	17700
CTTTCCCGATCTTGGGCAGTGGGTGTAGCACATTTG	4200
GTAATCCCAATTCACCACGTTCTTCCATGTTCAAGT	16100

Series 4
Target: Histone acetyltransferase KAT6A, winged helix 1, GST fusion (KAT6A, Homo sapiens, UniProt Q92794, residues 1-85)
Method: protein binding microarray
Form: double-stranded DNA, one strand shown
Matrix: in vitro
Tested at: not given
Notes: 8-mer, flanks averaged, mean of 2 arrays, mostly near background
Reference: not given
Reading: higher = stronger binding
Construct (chain): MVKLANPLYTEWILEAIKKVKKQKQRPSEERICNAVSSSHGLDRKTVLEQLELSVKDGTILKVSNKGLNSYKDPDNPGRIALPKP
Oligonucleotide	E-score
GAAGAGCA	-0.00614
ACGCTTCC	0.256
AGACGGGC	0.351
CACTCTGA	-0.0641
CATGTCCG	0.21
CCAATTGC	-0.0204
AACACACT	-0.0155
CTCCCGGA	0.0581
CGCCCGCA	0.375
CGCCTAAG	0.226
ATGCAGTC	-0.221
CAGCGTGA	-0.118
TATGATGA	-0.197
GCACTACC	0.0764
ATACTGTG	-0.15
AATTTAGA	-0.182
CAGCCGCA	0.0434
CGTATTAA	0.0681
CTACCCAA	-0.122
AACTCCGG	0.0951
CCAATGCA	-0.172
AGGAACGA	-0.0728
CCATGCGA	-0.00283
CCCTGTAA	-0.0261
AGCCAGCT	-0.293

Repeated from above (series 2):
Oligonucleotide	log2 enrichment
UUCCUCAAGUCCUGUGCUACACAUCGUAUGUACCGAAUCGGCGGCGGCGGAAAGUAUUAUGUUACGCCGUUCGGAUCUGCACUUCCAGCA	-0.0726
GUCCUGUGCUACACAUCGUAUGUACCGAAUCGGAAAAAAGGGAAAAAAGGAAAAAAGGAAAGUAUUAUGUUACGCCGUUCGGAUCUGCAC	-0.659
UAACUUUAGAGGAGGAUCUGAUGGAUAUGGCAGUGGACGUGGAUUUGGGGAUGGCUAUAAUGGGUAUGGUGGAGGACCUGGAGGUGGCAA	0.27
ACCAUGCAGGUGGGCAUCUUUGGGAAGUGGGGCAAGGGGGGGUUAGGGAGGGGGGUAACACUUUGGGAACAGGUGGUCCCAGGUCGUUUC	0.761
UGGGAGGUGGAUUUUGUUUAUUUUUUUAGCUCAUUUCCAGGGGUGGGAAUUUUUUUUUAAUAUGUGUCAUGAAUAAAGUUGUUUUAGAAA	0.304
UGGCCUUGGUGGCAUGCGGGGAGGAAGAGGUGGCCUCAUGGAUCGUGGUGGUCCCGGUGGAAUGUUCAGAGGUGGCCGUGGUGGAGACAG	0.466
AUUAAUUUGUACACAGACAGGGAAACUGGCAAGCUGAAGGGAGAGGCAACGGUCUCUUUUGAUGACCCACCUUCAGCUAAAGCAGCUAUU	-0.835
UCAAGUCCUGUGCUACACAUCGUAUGUACCGAAUCGGAAAGGAAAGGUUUUUGGAAAGUAUUAUGUUACGCCGUUCGGAUCUGCACUUCC	-0.884
GCAGGAAAAAAAAACAAAUGGAAAUGCUUCGGAUAGUGGCAGGGGUGGGGGUUGCUAAGGAAAGGGUGGGAUGGGAGUGGGUAAAGAGUU	0.666
CUGUGCUACACAUCGUAUGUACCGAAUCGGGUUUUUUUGGGGUUUUUUUGGUUUUUUUGGGAAAGUAUUAUGUUACGCCGUUCGGAUCUG	-0.775
CUCAAGUCCUGUGCUACACAUCGUAUGUACCGAAUCGGGAGGGGAGGGGAGGGGAAAGUAUUAUGUUACGCCGUUCGGAUCUGCACUUCC	1.18
UGUGCUACACAUCGUAUGUACCGAAUCGGGGAAAAAGGGGUUUUUUUGGGGUUUUUUUGGGGAAAGUAUUAUGUUACGCCGUUCGGAUCU	0.319
